Experimental data pooled from the literature.
“And” joins repeats or separate records; there may be more than shown. ± marks the error that the study gave. Converted amounts (≈) assume the structure as drawn.
Chain of UniProt Q16539 (whole entry, looked up): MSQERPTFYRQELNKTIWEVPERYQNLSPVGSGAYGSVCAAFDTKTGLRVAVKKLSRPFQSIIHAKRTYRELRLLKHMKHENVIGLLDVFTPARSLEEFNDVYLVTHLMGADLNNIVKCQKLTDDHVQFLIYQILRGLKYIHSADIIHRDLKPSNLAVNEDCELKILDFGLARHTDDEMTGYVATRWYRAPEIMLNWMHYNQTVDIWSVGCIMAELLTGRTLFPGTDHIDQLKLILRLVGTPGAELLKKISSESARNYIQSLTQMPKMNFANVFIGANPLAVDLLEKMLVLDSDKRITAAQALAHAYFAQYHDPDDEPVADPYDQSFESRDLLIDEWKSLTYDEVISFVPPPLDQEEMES
Chain of UniProt Q96SB4 (whole entry, looked up): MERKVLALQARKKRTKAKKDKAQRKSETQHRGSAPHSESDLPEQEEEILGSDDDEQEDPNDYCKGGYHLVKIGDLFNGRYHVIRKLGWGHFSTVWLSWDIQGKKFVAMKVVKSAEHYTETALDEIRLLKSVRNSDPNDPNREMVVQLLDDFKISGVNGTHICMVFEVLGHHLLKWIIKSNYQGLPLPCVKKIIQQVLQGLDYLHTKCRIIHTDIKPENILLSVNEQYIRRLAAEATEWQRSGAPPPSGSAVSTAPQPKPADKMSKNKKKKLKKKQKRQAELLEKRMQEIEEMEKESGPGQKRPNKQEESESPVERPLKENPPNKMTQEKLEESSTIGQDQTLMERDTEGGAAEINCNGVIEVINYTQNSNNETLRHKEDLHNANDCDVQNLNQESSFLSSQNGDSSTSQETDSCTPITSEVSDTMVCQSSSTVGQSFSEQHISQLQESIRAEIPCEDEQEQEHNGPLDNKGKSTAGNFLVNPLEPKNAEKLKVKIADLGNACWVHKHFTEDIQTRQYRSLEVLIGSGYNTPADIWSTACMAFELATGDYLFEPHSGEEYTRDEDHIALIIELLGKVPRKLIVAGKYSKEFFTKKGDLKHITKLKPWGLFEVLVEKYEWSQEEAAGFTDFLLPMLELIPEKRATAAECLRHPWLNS

Structure (SMILES) | target or system | assay | system | setting | scale | quantity | result
CC[C@H](C)[C@H](NC(=O)[C@H](CCCCN)NC(=O)CNC(=O)[C@H](CC(C)C)NC(=O)[C@H](Cc1ccccc1)NC(=O)[C@H](CCCCN)NC(=O)[C@H](CO)NC(=O)[C@H](Cc1ccccc1)NC(=O)[C@H](Cc1c[nH]c2ccccc12)NC(=O)[C@H](CCC(N)=O)NC(=O)[C@@H](NC(=O)[C@H](Cc1ccccc1)NC(=O)CCCCCNC(=O)CN1CCN(CC(=O)O)CCN(CC(=O)O)CCN(CC(=O)O)CC1)C(C)C)C(=O)N[C@@H](CCC(=O)O)C(=O)N1CCC[C@H]1C(=O)N[C@@H](CC(=O)O)C(=O)N[C@H](C(=O)N[C@@H](CO)C(=O)N[C@@H](CCC(N)=O)C(=O)N[C@H](C(=O)N[C@@H](CCC(N)=O)C(=O)N[C@@H](CC(=O)O)C(=O)N1CCC[C@H]1C(=O)N[C@@H](CC(N)=O)C(=O)N[C@@H](CC(=O)O)C(=O)N[C@@H](CCC(N)=O)C(=O)N[C@@H](Cc1ccc(O)cc1)C(=O)N[C@@H](CCC(=O)O)C(=O)N1CCC[C@H]1C(=O)N[C@@H](Cc1ccccc1)C(=O)O)C(C)C)C(C)C [copper-64 labelled] | – | dynamic PET | mouse, CT26 tumour, checkpoint inhibitor-treated, tumour | intravenous, 100 µCi/mouse, 3100 s | – | SUVmean | 4.76 SUV
CSCC[C@@H]1NC(=O)[C@H](C(C)C)NC(=O)[C@H](CCCNC(=N)N)NC(=O)[C@@H]2CCCN2C(=O)CNC(=O)[C@@H](NC(=O)CNC(=O)[C@H](CO)NC(=O)CNC(=O)[C@H](CO)NC(=S)Nc2ccc(C[C@H]3CN(CC(=O)O)CCN(CC(=O)O)CCN3CC(=O)O)cc2)CSSC[C@@H](C(N)=O)NC(=O)[C@@H]2CCCN2C(=O)CNC(=O)[C@H](CCC(=O)O)NC(=O)[C@H](CC(=O)O)NC(=O)[C@H](CC(=O)O)NC(=O)CNC(=O)[C@H](CC(C)C)NC(=O)[C@H](Cc2c[nH]cn2)NC(=O)[C@H](CC(C)C)NC(=O)CNC(=O)[C@H](Cc2c[nH]cn2)NC1=O [copper-64 labelled] | – | dynamic PET | CD rat, myocardial infarction model, remote myocardium | intravenous, 18.5 MBq, 5 to 60 min | – | half-life | 19.3 ± 0.9 min
COc1ccccc1-c1n[nH]c2nc(NC3CCN(C(=O)Cc4ccc(F)cc4F)CC3)ncc12 | – | bead binding, competition bead pull-down, item: LINJ.23.0220 | Leishmania donovani extract | 10 µM | reference: vehicle | relative abundance | 1.07
CC(=O)NCCCC[C@@H]1NC(=O)[C@H](Cc2c[nH]c3c(C)cccc23)NC(=O)[C@H]([C@@H](C)O)NC(=O)[C@H](CC(N)=O)NC(=O)[C@@H](NC(C)=O)C(C)(C)SSC(C)(C)[C@@H](C(=O)N[C@@H](Cc2ccc(OCCN)cc2)C(=O)N[C@@H](Cc2ccc3ccccc3c2)C(=O)NC2(C(=O)N[C@@H](CCC(=O)O)C(=O)N[C@@H](CC(N)=O)C(=O)N[C@@H](Cc3cccnc3)C(=O)N(C)CC(N)=O)CCOCC2)NC1=O | – | equilibrium dialysis | mouse, plasma | 1 µM | – | plasma protein binding | 55.8 ± 2.7%
CC(C)(C)C(=O)OCOP(=O)(OCOC(=O)C(C)(C)C)C1CCCN(O)C1=O (stereo not drawn) | OVCAR-3 | – | – | – | – | log TGI | > -4 log M
O=C(CN1CCN(CC(=O)NCP(=O)([O-])[O-])CCN(CC(=O)NCP(=O)([O-])[O-])CCN(CC(=O)NCP(=O)([O-])[O-])CC1)NCP(=O)([O-])[O-].[Gd+3] | – | – | Sprague-Dawley rats, blood | intravenous, 35 µmol/kg, two-compartment model, together with: GdDTPA 68 µmol/kg co-injected | – | AUC(0-inf) | 196 kg·min/L
CN(C)[C@H]1C[C@@]23CC[C@@]4(O2)C(=CC[C@]2(C)[C@@H](c5ccc6ccncc6c5)CC[C@H]24)C=C3[C@@H](O)[C@@H]1O | SRPK1 (Homo sapiens, UniProt Q96SB4) | ATP probe labelling, inhibitor, KiNativ profiling | – | 1 µM | – | inhibition | 1%
CC(C)[C@@H]1NC(=O)CNC(=O)[C@H](CC(N)=O)NC(=O)[C@H](CCCNC(=N)N)NC(=O)[C@H](Cc2ccc(O)cc2)NC(=O)[C@H](C(C)C)NC(=O)[C@@H](NC(=O)[C@@H](NC(=O)[C@H](CC(N)=O)NC(=O)[C@H](Cc2c[nH]c3ccccc23)NC(=O)[C@H](C)NC(=O)[C@H](Cc2ccccc2)NC(=O)CNC(=O)[C@H](CCCCN)NC(=O)[C@H](Cc2ccccc2)NC(=O)[C@H](Cc2ccccc2)NC(=O)[C@H](CCCCN)NC(=O)OCC2c3ccccc3-c3ccccc32)C(C)C)CSSC[C@@H](C(=O)N[C@@H](Cc2c[nH]cn2)C(=O)N[C@@H](CCCNC(=N)N)C(=O)N[C@@H](CCCNC(=N)N)C(=O)N[C@@H](C)C(=O)N[C@@H](CC(N)=O)C(N)=O)NC(=O)[C@H](C(C)C)NC(=O)[C@H](CCCNC(=N)N)NC1=O | – | – | ICR mouse | ip, 5 mg/kg | direction not given | lachrymation score | 0
Cc1cc(C(=O)Nc2nc3cccc(C)c3n2[C@H]2CCCCN(C(=O)/C=C/CN(C)C)C2)ccn1 | Trypanosoma brucei brucei | – | 2T1 CLK1 overexpressing | 0.1563 µM, compound pretreated | reference: maximum | survival | 197% and 206% and 213% and 208%
C#Cc1c(F)ccc2cc(O)cc(-c3ncc4c(N5CC6CCC(C5)N6C(=O)OC(C)OC(=O)C5CCOCC5)nc(OC[C@@]56CCCN5C[C@H](F)C6)nc4c3F)c12 (stereo partly drawn) | – | chemical stability | simulated intestinal fluid | 1 µM, 30 min | – | compound remaining | 106%
CC(C)C[C@@H](NC(=O)[C@@H](CCCNC(=N)N)NC(=O)[C@@H](Cc1c[nH]cn1)NC(=O)[C@@H](Cc1c[nH]c2ccccc12)NC(=O)[C@@H](Cc1c[nH]cn1)NC(=O)[C@@H](Cc1ccccc1)NC(=O)[C@H](NC(=O)[C@@H](Cc1ccc(O)cc1)NC(=O)CNC(=O)CNC(=O)CCOCCOCCOCCNC(=O)CN1CCN(CC(=O)O)CCN(CC(=O)O)CC1)[C@H](C)O)C(=O)N[C@H](CC(N)=O)C(=O)N1CCC[C@@H]1C(=O)O [gallium-68 labelled] | – | – | C57BL/6 mice, male | intravenous, 1.85 MBq, 30 min | reference: tumour over brain | tissue ratio | 3.22 ± 0.68
CC(C)[C@H](NC(=O)[C@H](Cc1c[nH]c2ccccc12)NC(=O)[C@H](CCCNC(=N)N)NC(=O)[C@H](CCCNC(=N)N)NC(=O)[C@@H](NC(=O)[C@@H](NC(=O)[C@H](CCCNC(=N)N)NC(=O)[C@@H](NC(=O)[C@@H](NC(=O)[C@H](CCCNC(=N)N)NC(=O)[C@H](CCCNC(=N)N)NC(=O)[C@@H](NC(=O)[C@H](Cc1c[nH]c2ccccc12)NC(=O)[C@H](CCCNC(=N)N)NC(=O)[C@H](CCCNC(=N)N)NC(=O)[C@@H](NC(=O)[C@H](CCCNC(=N)N)NC(=O)[C@H](CCCNC(=N)N)NC(=O)[C@@H](NC(=O)[C@H](Cc1c[nH]c2ccccc12)NC(=O)[C@H](CCCNC(=N)N)NC(=O)[C@@H](N)CCCNC(=N)N)C(C)C)C(C)C)C(C)C)C(C)C)C(C)C)C(C)C)C(C)C)C(=O)N[C@@H](CCCNC(=N)N)C(=O)N[C@@H](CCCNC(=N)N)C(=O)O | – | – | Swiss Webster mice | intravenous, dose not given, single dose | reference: vehicle | liver, kidney, spleen weights | no effect
CS(C)(=O)=Nc1ccc(-c2ccc(-c3nc4cc(O[C@@H]5CO[C@H]6[C@@H]5OC[C@H]6O)[nH]c4cc3F)cc2)cc1 | MAPK14 (Homo sapiens, UniProt Q16539) | enzyme activity, inhibitor | – | 10 µM | – | inhibition | 2%
N#Cc1ccc(N2N=C(c3ccc(C(=O)O)cc3)CC2C2CCCC2)cc1Cl (stereo not drawn) | – | – | PBS | 90 min | – | kinetic solubility | 32 µM (≈ 12.6 µg/mL)
O=C1NC2(CC2)COc2ncc(F)cc2[C@H]2COCCN2c2ccn3ncc1c3n2 | – | – | Sprague-Dawley rat, male, spleen | oral, 20 mg/kg/day, 4 weeks, end of treatment | – | organ-to-body weight ratio | 0.399 ± 0.095%
N#[11C]c1ccc(-c2csc(NN=C3CCCC3)n2)cc1 | – | – | C57BL/6 mice, male, lung | intravenous, 3 MBq, 30 min | – | radioactivity uptake | 3.58 ± 0.4 %ID/g
Cc1nc2cccc(OCC(C)(C)C(=O)NC(C)C)c2c(N)c1C(=O)[O-].[Na+] | Salmonella typhimurium | – | TA100 | 5.0 mg per plate, with S9, preincubation | – | revertant colonies per plate | 125 ± 12
COc1ccc([C@@H]2CC(=O)c3c(O)cc(O[C@@H]4O[C@H](CO)[C@@H](O)[C@H](O)[C@H]4O[C@@H]4O[C@@H](C)[C@H](O)[C@@H](O)[C@H]4O)cc3O2)cc1O | – | – | Sprague-Dawley rat, male, obese, faeces | oral, 100 mg/kg, 12-24 h | – | faecal excretion | 12000 ± 625 ng
Cc1ccccc1-c1ccc(-c2nc(-c3ccc(CN(C)CCCC(=O)O)c([18F])c3)no2)cc1C(F)(F)F | – | – | rat, muscle | 2 h | – | tracer uptake | 0.1 %ID/g
C=Cc1c(C)c2cc3nc(c(CC(=O)[O-])c4[n-]c(cc5nc(cc1[n-]2)C(C)=C5CC)c(C)c4C(=O)[O-])C(CCC(=O)[O-])C3C.[Cu+2].[Na+].[Na+].[Na+] (stereo not drawn) | – | – | Wistar rat, female | oral, 250 mg/kg daily, 28 days | – | serum cholesterol | 43.7 ± 11.9 mg/dL
CC(C)N1CCCCC1C(=O)NC(Cc1ccc(-c2ccccc2)cc1)B(O)O (stereo not drawn) | – | – | male Sprague-Dawley rats | oral, 1 mg/kg | – | oral bioavailability | 78%
COc1cnc2cccc(N3CCc4c(cc(Cn5ccnc5)cc4-c4cn(C)nc4C(F)(F)F)C3=O)c2c1 | – | – | BALB/c nude mice, MV4-11 xenograft | intraperitoneal, 50 mg/kg, day 24 | – | body weight | 22.4 g and 20.2 g and 21.8 g and 24.8 g and 23.4 g and 21.4 g and 22.7 g and 23.7 g
CC[C@H](C)[C@H](NC(=O)[C@H](CC(C)C)NC(=O)[C@H](CC(N)=O)NC(=O)CNC(=O)[C@H](CO)NC(=O)[C@H](CC(C)C)NC(=O)[C@@H](NC(=O)[C@H](CC(C)C)NC(=O)[C@H](CCC(N)=O)NC(=O)[C@]1(C)CCCC=CCCC[C@](C)(NC(=O)[C@@H]2CCCN2C(=O)[C@H](CC(=O)O)NC(C)=O)C(=O)N[C@@H](CCCNC(=N)N)C(=O)N[C@@H](CC(C)C)C(=O)N[C@@H](CC(C)C)C(=O)N1)C(C)C)C(=O)N[C@@H](CCCCN)C(=O)N[C@@H](CCC(=O)O)C(=O)N[C@@]1(C)CCCC=CCCC[C@@](C)(C(=O)N[C@@H](Cc2c[nH]cn2)C(=O)N[C@@H](CO)C(=O)N[C@@H](CCCNC(=N)N)C(N)=O)NC(=O)[C@H](CCCNC(=N)N)NC(=O)[C@H](CCCNC(=N)N)NC(=O)[C@H](C(C)C)NC1=O | – | LC-MS | C57BL/6J mouse, serum | subcutaneous, 5 mg/kg, multiple doses, 0.5 h | – | serum concentration | 68.5 ± 10.4 ng/mL
O=C(O)c1ccc(-c2nc(-c3ccccc3Cl)c3sccn23)cc1 | – | – | mouse | oral, dose not given, day 11, together with: 5-fluorouracil | – | plasma concentration | 18.9 ng/mL and 34.2 ng/mL

Repeated from above:
Structure (SMILES) | target or system | assay | system | setting | scale | quantity | result
N#[11C]c1ccc(-c2csc(NN=C3CCCC3)n2)cc1 | – | – | C57BL/6 mice, male, lung | intravenous, 3 MBq, 30 min | – | radioactivity uptake | 3.58 ± 0.4 %ID/g
CC(C)C[C@@H](NC(=O)[C@@H](CCCNC(=N)N)NC(=O)[C@@H](Cc1c[nH]cn1)NC(=O)[C@@H](Cc1c[nH]c2ccccc12)NC(=O)[C@@H](Cc1c[nH]cn1)NC(=O)[C@@H](Cc1ccccc1)NC(=O)[C@H](NC(=O)[C@@H](Cc1ccc(O)cc1)NC(=O)CNC(=O)CNC(=O)CCOCCOCCOCCNC(=O)CN1CCN(CC(=O)O)CCN(CC(=O)O)CC1)[C@H](C)O)C(=O)N[C@H](CC(N)=O)C(=O)N1CCC[C@@H]1C(=O)O [gallium-68 labelled] | – | – | C57BL/6 mice, male | intravenous, 1.85 MBq, 30 min | reference: tumour over brain | tissue ratio | 3.22 ± 0.68
CC[C@H](C)[C@H](NC(=O)[C@H](CCCCN)NC(=O)CNC(=O)[C@H](CC(C)C)NC(=O)[C@H](Cc1ccccc1)NC(=O)[C@H](CCCCN)NC(=O)[C@H](CO)NC(=O)[C@H](Cc1ccccc1)NC(=O)[C@H](Cc1c[nH]c2ccccc12)NC(=O)[C@H](CCC(N)=O)NC(=O)[C@@H](NC(=O)[C@H](Cc1ccccc1)NC(=O)CCCCCNC(=O)CN1CCN(CC(=O)O)CCN(CC(=O)O)CCN(CC(=O)O)CC1)C(C)C)C(=O)N[C@@H](CCC(=O)O)C(=O)N1CCC[C@H]1C(=O)N[C@@H](CC(=O)O)C(=O)N[C@H](C(=O)N[C@@H](CO)C(=O)N[C@@H](CCC(N)=O)C(=O)N[C@H](C(=O)N[C@@H](CCC(N)=O)C(=O)N[C@@H](CC(=O)O)C(=O)N1CCC[C@H]1C(=O)N[C@@H](CC(N)=O)C(=O)N[C@@H](CC(=O)O)C(=O)N[C@@H](CCC(N)=O)C(=O)N[C@@H](Cc1ccc(O)cc1)C(=O)N[C@@H](CCC(=O)O)C(=O)N1CCC[C@H]1C(=O)N[C@@H](Cc1ccccc1)C(=O)O)C(C)C)C(C)C [copper-64 labelled] | – | dynamic PET | mouse, CT26 tumour, checkpoint inhibitor-treated, tumour | intravenous, 100 µCi/mouse, 3100 s | – | SUVmean | 4.76 SUV
